Assay results pooled from the literature.
A part holds a random share of what one study measured. Substitutions count along the parent as printed.

Block 1
Target: RNA binding protein fox-1 homolog 2, RRM domain, GST-SBP tag (RBFOX2, Homo sapiens, UniProt O43251-10, residues 100-194)
Method: RNA Bind-n-Seq
Form: RNA
Medium: in vitro
Concentration: 365 nM
Notes: natural RNA segment, single round, ends assumed
Relative to: no-protein control
Reading: higher = stronger binding
All sequences stand within: GGGAGUUCUACAGUCCGACGAUC … UGGAAUUCUCGGGUGCCAA
Residues (chain): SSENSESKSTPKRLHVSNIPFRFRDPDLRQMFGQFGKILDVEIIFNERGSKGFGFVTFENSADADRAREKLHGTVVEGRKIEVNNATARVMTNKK
| Oligonucleotide | RBNS enrichment (R) |
| --- | --- |
| CUUGCUUAAUGCUUUUGUUGACUCAACAAGGGCCCGAGGCCUUAGGUUUUCUAUUAAGGUCUCUGCCCCAGGCAUGGUGCUCUAUAUCUUGGCCAAAUAAAUUACUUUCC | 0.343 |
| AACCUAAGUGCUGCCCCAUCCUUCACCUUUACCCUAGAAAAUCUGAGAAUCCAUUGGUGUGUACUGUGUGACACAAUGCCAACAAGCCUCUGGUUUCUAAUACUGGCAGG | 0.383 |
| GGAGCAGGGUUUCCUCAGAUGAGGACUGCAUUCUUUGAAAACAAAGAAUGUCGCCAAGGAAGAAACCUCACGCCAUGCUGUAGUGUUUCCUGUAAUCACACGAGCACAUU | 0.276 |
| GUCUGUCAUUAAUAAUAAUUAACCCCCCUCCCCUCAUGGAACACUCCCGUUUGUACCUCAACAGAUGCAAAUUCCCCUCUCGUUCACCCUACGCCCUUUUUGGUACACUU | 1.05 |
| UUAUCAUAGUCUUUUUCUUUCAUUGAGUUUUCAUUUAGACUAGCAUGGCAAGCAGGGUGGCCUUGGACUUUGAUUUAGGGGAUCGUGCUUUGGCCUGGAAAAUAAGCACU | 1.32 |
| CUAUAAGUGGUGCCCAGUGUUCAUGGGGUCUGGUCUUUGACCGGCCUCUGGUGCCCACUUUUGUCUCCCACUUUACCAGGUGGGCCACAUGCACUGAGUGUCACUUUGCU | 0.254 |
| CUCCAAGGCUCUGCACCAUGCCACACACUUGCUGUAAGGCUAGAAGUGAAGACCUUAUUAAUAGGAGCAUAAUUGCGAGGGAGAAUCAUGGUUCUGCAGUCUGGUGUAGA | 0.269 |
| CCCGCACAAAGCGGCUCUAAACCUCAGGCCACAUCUUUUCCAAGGCAAACCCUGUUCAGGCUGGCUCGUAGGCCUGCCGCUUUGAUGGAGGAGGUAUUGUAAGCUUUCCA | 0.22 |
| AGUCGAUUUCUAGAAUCAAGUUUUAGAGUUCGGCUGAUGCAUCUGCCUGGGGACCUCAGAUGGGAGGAGUGUGUCAGUUGUACCCCGACAGAAAUGUCUCUGGGAUCUGU | 0.419 |
| GCCACUUCUAUCAUUUUUGAGCAACUCCCUCUCAGCUAAAAGGCCACCCCUUUAUCGCAUUGCUGUCCUUGGGUAGAAUAUAAAAUAAAGGGACUUUUAUUUCUUAUUGG | 0.62 |
| AGGACAGAGCUAUUUUGCUAUGAUAAUCUCUGUGGUUUAUGAUAAUAAUCUGAACAGCAAACAGUGCCAUUAAGUGCACAGAUGUUAAUGCAACUAAUGGUUGUGCCAGC | 0.477 |
| UACUAAAAAACUACUCGAGUAAAUAUCCUAACAAGUAUGAUUUUUCUUGGGAAAACUAAAAAUUGUACAUCCAUGCUUCAGCCAUAUCAUGGGCCUAAACUAUGAGAGUU | 0.372 |

Block 2
Target: RING finger protein unkempt homolog, zinc fingers 1-6, GST-SBP tag (UNK, Homo sapiens, UniProt Q9C0B0, residues 30-357)
UniProt Q9C0B0, sequence (30-357, looked up): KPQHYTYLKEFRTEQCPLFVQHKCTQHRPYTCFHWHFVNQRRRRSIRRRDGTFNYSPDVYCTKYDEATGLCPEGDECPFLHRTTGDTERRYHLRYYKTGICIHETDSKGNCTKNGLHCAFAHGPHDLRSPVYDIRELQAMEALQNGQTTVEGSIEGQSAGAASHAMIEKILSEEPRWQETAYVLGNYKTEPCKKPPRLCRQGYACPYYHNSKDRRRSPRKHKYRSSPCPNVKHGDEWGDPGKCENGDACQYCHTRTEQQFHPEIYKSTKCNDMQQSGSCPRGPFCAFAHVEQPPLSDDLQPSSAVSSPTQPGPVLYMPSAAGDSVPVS
Method: RNA Bind-n-Seq
Form: RNA
Medium: in vitro
Concentration: not given
Notes: RNA with constant flanks, ends assumed
Relative to: input RNA pool
Reading: higher = stronger binding
All sequences stand within: GGGAGUUCUACAGUCCGACGAUC … CAACAGAGGAUUGAGCAUCA
| Oligonucleotide | bound/input enrichment [ratio] |
| --- | --- |
| UACCAGUCAUAUAAUCAGUAUCCUAAUGGGUCAGCCAAUGGCUUUGGUGCAGUUAGAAACUUCCGCCCCACUGACUAUUAUCAUUCAGAAAUUCCAAACACAAGACCACAUGAAAUUCUG | 0.29 |
| GAUAUCUGUCGUAGAAACCUCGACAUUGAGCGCCCAACCUACACUAACCUAAACAGGUUGACCGGUCAAAUUGUGUCUUCCAUCACUGCUUCCCUCAGAUUUGAUGGGGCCCUGAAUGUU | 0.227 |
| UUGAUUCAUAGGGAUAUUAAAGCAGGAAAUAUUCUUCUAACAGAGCCAGGUCAGGUAAAACCCGCUGAUUUUGGAUCUGCUUCAAUGGCUUCUCCUGCCAACUCCUUCGUGGGCACACCU | 0.0653 |
| CCCACUGCUAUUCAAGCUCAGGGCUGGCCAGUUGCUCUCAGUGGAUUGGAUAUGGUUGGAGCCGCUCAGACUGGAUCUGGGAAAACAUUAUCUUAUUUGCUGCCUGCCAUUGUACACAUA | 0.338 |
| UUUUAUGCUCCGACAAGUGCUGUGGAGAACAUACUGGAACACUUGGCGCGAGACAUUGACGUGGUCCGACCAAAUAUUGUGAAACACCCUCUGACCCAGGAAGUAAAAGAGUGUGACGGC | 0.27 |
| GAGUUAGACCCCAAGUUGGCUCCCUGGAUCCAGAGACUGAAUAGUUUUGGCUUGGAUGCCACCGGACCCUUUUUCACUCGGUACGGAGCAUCUCUCAAGGAGCUUGAUUUCCACGUCGUG | 0.121 |
| CCACCAGAUACCGCUGCCAGACUGGGUUGGUCCCAGCCCCUAGGAAACCUUCAAGCUCCUUCCGGUUAUGAUAAAUUUAGCUAUUCUUGGCGGAGCAAAAAGGGAACCAAGUUCCACCAG | 0.488 |
| CACCUGCAGGAUAUUAAAGUGAAAUUUUCUGACCCUGGACAGCCUAUGUCUUUUGUGUCCGAGUUCCACUUUGAACCCAACGACUACUUUACCAACUCAGUCCUGACAAAAACCUACAAG | 0.159 |
| GGUGAGCUUCAUUUUCUCCAAAUUGGAGGAACCUGUGAUGAUAUUGAUGAAGCUGAUAUUCUGGCCGAUGGAUCCCUUUCUAAAGGAAUAGAACCAGCUCUAGAAGGUUCCAGACCUUUA | 0.162 |
| AAAGCCCAAGUAUUUUGAAAAAACUCGAACAGAUUUGACAAGGGUAGCCAGCUUGGAGUCCCGCAACUUGCCAAUGUGUUUACCAAUCUGGGGGCUUGUUUUUCUUUUCUUCUUUCAAAU | 0.364 |
| CACUUGAUGCCCCCACGAAUCCUAGUGGAAUGUUUACUCCCCAAUGGAAUGAUAGUGACUUCCGAAUGCCUCCGUGAGGCCACACUCGUCACCAUCAAACAUGAACUGUUCAGAGAGGCC | 0.169 |

Block 3
Target: CCNB2, cyclin fold, Cln2 fusion (human)
Method: yeast growth competition, sequencing
Medium: yeast
Notes: weak parent motif
Relative to: not given
Reading: higher = stronger binding
Parent: CDKN1A docking peptide (human); SKACRRLFGPVDS; partner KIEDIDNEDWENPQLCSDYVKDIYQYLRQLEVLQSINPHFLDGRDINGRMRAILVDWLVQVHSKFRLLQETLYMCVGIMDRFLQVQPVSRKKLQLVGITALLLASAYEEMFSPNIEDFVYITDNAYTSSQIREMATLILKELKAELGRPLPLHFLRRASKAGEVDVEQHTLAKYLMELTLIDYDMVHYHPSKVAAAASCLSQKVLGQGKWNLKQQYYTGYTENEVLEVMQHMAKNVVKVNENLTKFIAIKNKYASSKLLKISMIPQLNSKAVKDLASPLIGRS
| Variant | normalised enrichment score |
| --- | --- |
| G9I | 0.55 |
| R6D | -0.0745 |
| D12H | 0.534 |
| R6K | 0.474 |
| A3C | 0.547 |
| G9Y | 0.282 |
| C4Y | -0.126 |
| D12K | 0.46 |
| R6A | -0.0788 |
| P10N | 0.347 |
| F8C | 0.415 |
| P10F | -0.0228 |
| L7Q | 0.5 |
| K2A | 0.0932 |
| K2G | 0.051 |
| G9T | 0.305 |
| D12N | 0.374 |
| C4V | 0.334 |
| P10A | 0.369 |
| G9K | 0.866 |
| F8R | 0.323 |
| P10I | 0.415 |

Block 4
Target: Prothrombin, mature alpha-thrombin (F2, Homo sapiens, UniProt P00734)
Method: aptamer microarray, sandwich
Form: DNA with 2'F-ANA
Medium: in vitro
Concentration: 200 nM
Notes: whole 15-mer aptamer, many near background
Together with: Cy3 exosite-II aptamer, 400 nM
Reading: higher = stronger binding
Oligonucleotide: GGTTGGTGTGGTTGG
| Modification | mean fluorescence intensity [a.u.] |
| --- | --- |
| 2'F-ANA at 1 2 5 6 7 8 10 13 15 | 52 |
| 2'F-ANA at 2 3 4 6 7 8 10 14 15 | 150 |
| 2'F-ANA at 2 4 6 10 12 14 | 62.1 |
| 2'F-ANA at 1 2 3 4 5 7 13 | 72.1 |
| 2'F-ANA at 1 2 5 6 9 12 | 114 |
| 2'F-ANA at 5 6 7 8 10 11 12 13 | 52.4 |
| 2'F-ANA at 4 6 7 8 9 10 12 13 14 15 | 74.2 |
| 2'F-ANA at 4 6 7 9 11 12 14 15 | 80.8 |
| 2'F-ANA at 2 3 6 9 13 15 | 643 |
| 2'F-ANA at 2 3 5 6 7 8 9 13 | 72.8 |
| 2'F-ANA at 2 7 12 14 | 256 |
| 2'F-ANA at 1 5 6 7 8 12 14 15 | 50.4 |
| 2'F-ANA at 1 2 5 8 10 13 14 15 | 45.9 |
| 2'F-ANA at 1 4 6 10 13 14 15 | 138 |
| 2'F-ANA at 1 3 6 9 11 15 | 209 |
| 2'F-ANA at 1 2 4 6 7 8 14 15 | 86.7 |
